Measured values pooled from the literature.
A part holds a random share of what one study measured. Changes are numbered by the printed parent chain.
UniProt Q96B02, sequence (whole entry, looked up): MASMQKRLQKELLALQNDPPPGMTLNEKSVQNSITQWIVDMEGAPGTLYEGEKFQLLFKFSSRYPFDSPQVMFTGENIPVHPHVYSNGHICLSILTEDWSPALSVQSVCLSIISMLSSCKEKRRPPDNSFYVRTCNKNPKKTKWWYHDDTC
UniProt P49459, sequence (whole entry, looked up): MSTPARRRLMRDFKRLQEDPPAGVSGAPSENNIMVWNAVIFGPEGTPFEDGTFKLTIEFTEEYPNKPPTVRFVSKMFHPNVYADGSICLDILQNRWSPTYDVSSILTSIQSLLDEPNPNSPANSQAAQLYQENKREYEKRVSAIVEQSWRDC
UniProt P61077, sequence (whole entry, looked up): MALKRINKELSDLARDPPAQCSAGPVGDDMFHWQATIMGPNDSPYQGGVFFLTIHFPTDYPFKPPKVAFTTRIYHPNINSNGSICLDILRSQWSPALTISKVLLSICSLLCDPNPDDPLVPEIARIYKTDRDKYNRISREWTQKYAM

Set 1
Molecule: RNF141 RING domain (UniProt Q8WVD5)
UniProt Q8WVD5, sequence (whole entry, looked up): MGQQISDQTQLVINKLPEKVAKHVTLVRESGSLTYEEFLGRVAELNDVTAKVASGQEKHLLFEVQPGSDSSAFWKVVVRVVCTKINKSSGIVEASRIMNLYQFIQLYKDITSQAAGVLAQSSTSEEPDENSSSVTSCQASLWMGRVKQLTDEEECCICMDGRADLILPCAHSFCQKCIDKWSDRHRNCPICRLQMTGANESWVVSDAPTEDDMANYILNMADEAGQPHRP
Method: yeast two-hybrid
Sample: yeast
Setting: mostly zero background
Relative to: not given
Reading: higher = stronger interaction
| target | lacZ reporter activity |
| --- | --- |
| UBE2W UBC core domain (UniProt Q96B02) | 0 |
| UBE2A UBC core domain (UniProt P49459) | 0 |
| UBE2D3 UBC core domain (UniProt P61077) | 0 |

Set 2
Target: CCNB1, cyclin fold, Cln2 fusion (human)
Method: yeast growth competition, sequencing
Sample: yeast
Setting: strong parent motif
Relative to: not given
Reading: higher = stronger binding
Parent: viral docking peptide; KGVKRKLFAEDSS; partner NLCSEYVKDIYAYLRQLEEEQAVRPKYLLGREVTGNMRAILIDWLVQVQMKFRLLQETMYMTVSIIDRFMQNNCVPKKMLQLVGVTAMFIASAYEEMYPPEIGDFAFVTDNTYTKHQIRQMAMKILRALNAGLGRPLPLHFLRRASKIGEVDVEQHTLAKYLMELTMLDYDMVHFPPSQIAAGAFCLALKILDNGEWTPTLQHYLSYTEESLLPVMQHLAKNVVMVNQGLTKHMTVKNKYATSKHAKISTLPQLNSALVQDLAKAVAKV
| Substitution | normalised enrichment score |
| --- | --- |
| KGQKRKLFAEDSS [V3Q] | 0.0857 |
| KGVKKKLFAEDSS [R5K] | 2 |
| KGVPRKLFAEDSS [K4P] | 0.809 |
| KGVKRKLFAEDNS [S12N] | 2.6 |
| KGVKRKLYAEDSS [F8Y] | 0.246 |
| KGVKRTLFAEDSS [K6T] | 1.24 |
| KGVKRVLFAEDSS [K6V] | 0.976 |
| KDVKRKLFAEDSS [G2D] | 3.14 |
| KGVKAKAFAEDSS [R5A L7A] | 0.132 |
| KGYKRKLFAEDSS [V3Y] | 0.591 |
| KGVKRKSFAEDSS [L7S] | 0.109 |
| AGVKRKLFAEDSS [K1A] | 2.81 |
| KGVKRKLFACDSS [E10C] | 0.823 |
| KGVKRKDFAEDSS [L7D] | 0.184 |
| KGVKRKLEAEDSS [F8E] | 0.591 |
| KGVKRKLFAEDES [S12E] | 3.59 |
| KGVKRKLFAENSS [D11N] | 1.35 |
| KGVKRKLSAEDSS [F8S] | -0.159 |
| KGCKRKLFAEDSS [V3C] | 1.08 |
| KGVKRMLFAEDSS [K6M] | 1.64 |
| KGVKRKLFAEISS [D11I] | 1.27 |
| KGVKRKEFAEDSS [L7E] | 0.343 |

Set 3
Target: TAR DNA-binding protein 43, full length, His tag (TARDBP, Homo sapiens, UniProt Q13148, residues 1-414)
Method: RNA Bind-n-Seq
Molecule type: RNA
Sample: in vitro
Concentration: 20 nM
Setting: 6-mer, flanks averaged, single round
Added: 150 mM KCl
Relative to: input library
Reading: higher = stronger binding
| Oligonucleotide | 6-mer enrichment (R) |
| --- | --- |
| UACGCU | 0.599 |
| UUACGA | 0.595 |
| UGCGGC | 1.45 |
| AACGCA | 0.665 |
| CCGUUA | 0.577 |
| CCUCGC | 0.617 |
| AGGUUG | 1.22 |
| GAGGUC | 1.33 |

Set 4
Target: HLA class I histocompatibility antigen, A alpha chain, allele A*25:01 (Homo sapiens, UniProt P04439)
Observed: peptide-MHC binding
Molecule type: peptide
Concentration: concentration not given
| Sequence | binding |
| --- | --- |
| GIVSSMHYK | inactive |
| QHAWPLPPL | inactive |
| ETFNTPAMY | active |
| ERYPGGVSL | inactive |
| KPKHLYVSM | inactive |
| EGFDPRALI | inactive |
| LRYGNVLDV | inactive |
| EAEKQLQQY | inactive |

Set 5
Target: RING finger protein unkempt homolog, zinc fingers 1-6, GST-SBP tag (UNK, Homo sapiens, UniProt Q9C0B0, residues 30-357)
Method: RNA Bind-n-Seq
Molecule type: RNA
Sample: in vitro
Concentration: not given
Setting: RNA with constant flanks, ends assumed
Relative to: input RNA pool
Reading: higher = stronger binding
Construct (chain): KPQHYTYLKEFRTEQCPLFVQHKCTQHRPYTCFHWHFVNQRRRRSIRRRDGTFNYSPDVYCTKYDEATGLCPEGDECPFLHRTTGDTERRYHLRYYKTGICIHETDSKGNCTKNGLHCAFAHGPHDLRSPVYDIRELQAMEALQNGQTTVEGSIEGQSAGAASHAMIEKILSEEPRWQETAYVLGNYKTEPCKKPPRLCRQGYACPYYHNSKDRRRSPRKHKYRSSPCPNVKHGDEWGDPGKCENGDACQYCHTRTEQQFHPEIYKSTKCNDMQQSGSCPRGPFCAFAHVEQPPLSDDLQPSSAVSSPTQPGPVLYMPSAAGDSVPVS
| Oligonucleotide | bound/input enrichment |
| --- | --- |
| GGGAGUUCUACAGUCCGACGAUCGGAAGGCGCUGUUUGAAGCUUGUGGCUCUUUGAAGUCUGAAAGACAUCGGCAGAGGACCCUUCCGACGGCACAACUGUUACUCUAGGGAGUUGAUUUUUUUUUCUUAAGAGAUUUAAAAACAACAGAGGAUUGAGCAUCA | 0.0883 ratio |
| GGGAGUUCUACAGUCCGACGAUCCCACCAGAUACCGCUGCCAGACUGGGUUGGUCCCAGCCCCUAGGAAACCUUCAAGCUCCUUCCGGUUAUGAUAAAUUUAGCUAUUCUUGGCGGAGCAAAAAGGGAACCAAGUUCCACCAGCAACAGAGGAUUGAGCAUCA | 0.488 ratio |
| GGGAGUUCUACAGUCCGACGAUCCUAUCAAAGGUUCCGGCUUGAAGGGAACUGUCACUACCCCCUCUAGGAAGUUAUUUUAUGCCGCAUGUUUGCAUAUACGCAUUGUGUGGCAUGUGCAUAGAGGCUUGUUUUACACCUAUCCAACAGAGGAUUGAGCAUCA | 0.737 ratio |
| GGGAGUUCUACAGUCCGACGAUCUACAGCUUGCCUUUUUAAUGUUAGUCACAAUGUUUUUGUGGUUUGAAGUUUAGUUUAAUGUCCGUGCAGUGACGGGAAAUACACAUUAUGCUAAUGUUGAUGACAGAAUUUAUUUGGUUGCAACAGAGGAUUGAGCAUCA | 0.338 ratio |
| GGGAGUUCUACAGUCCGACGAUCCUGCAGAGCAAACCACCUCCUGGGAUUGGUGAAAGUUUGGGUGUAAAUGUGACUGAGAAAACCGAAAUUCAUCUUGAAGAACCAGCCCCUUCAGAUAAACAGCUCUCUAAUGAUGCAGCGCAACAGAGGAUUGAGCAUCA | 0.169 ratio |
| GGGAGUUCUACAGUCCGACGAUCGGUGCAUGGAACAUGAAUUCUUAACAGAGAUUUCAGAUUUCCUUGUCUUUGCUAAAUACACCGUAUGAAACCCCUUAAUUUUUCUUGUUUAAUGAAUGGAGAACACAUGAGAAAAUCAGACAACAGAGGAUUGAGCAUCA | 0.211 ratio |
| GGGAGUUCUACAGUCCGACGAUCUUCUGAUAAUUCUAGAGCCUGUUACCAUAGAAAGGUAUUUCUUCAAUGGCUGGUUGCCGUCCGUUCAUGUUUUUCAAUCAAUUUGCAAAUGUAUUUGUUGCUGUAUAGUGAUUGUUUUGCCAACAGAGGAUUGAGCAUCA | 1.36 ratio |
| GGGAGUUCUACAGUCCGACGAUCGAGUUAGACCCCAAGUUGGCUCCCUGGAUCCAGAGACUGAAUAGUUUUGGCUUGGAUGCCACCGGACCCUUUUUCACUCGGUACGGAGCAUCUCUCAAGGAGCUUGAUUUCCACGUCGUGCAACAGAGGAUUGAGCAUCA | 0.121 ratio |

Mixed results
| Molecule | partner | method | sample | added | quantity | value |
| --- | --- | --- | --- | --- | --- | --- |
| SNRNP70 (Homo sapiens, UniProt P08621) | ACOT9 (Homo sapiens, UniProt Q9Y305) | cross-linking MS | cell fractions | DMTMM | cross-linked residues | E122 to K156 |

For quick reference, copied from above (set 2):
| Substitution | normalised enrichment score |
| --- | --- |
| KGVKRKLFACDSS [E10C] | 0.823 |
| KGQKRKLFAEDSS [V3Q] | 0.0857 |
| KGVKRKLFAEDNS [S12N] | 2.6 |
| KGCKRKLFAEDSS [V3C] | 1.08 |
| KGVKRKLEAEDSS [F8E] | 0.591 |
| AGVKRKLFAEDSS [K1A] | 2.81 |
